Experimental data of several laboratories.
± gives the spread as reported.
USP51 ZnF-UBD domain: Ubiquitin carboxyl-terminal hydrolase 51, ZnF-UBD domain (USP51, Homo sapiens, UniProt Q70EK9)
UniProt Q70EK9, sequence (whole entry, looked up): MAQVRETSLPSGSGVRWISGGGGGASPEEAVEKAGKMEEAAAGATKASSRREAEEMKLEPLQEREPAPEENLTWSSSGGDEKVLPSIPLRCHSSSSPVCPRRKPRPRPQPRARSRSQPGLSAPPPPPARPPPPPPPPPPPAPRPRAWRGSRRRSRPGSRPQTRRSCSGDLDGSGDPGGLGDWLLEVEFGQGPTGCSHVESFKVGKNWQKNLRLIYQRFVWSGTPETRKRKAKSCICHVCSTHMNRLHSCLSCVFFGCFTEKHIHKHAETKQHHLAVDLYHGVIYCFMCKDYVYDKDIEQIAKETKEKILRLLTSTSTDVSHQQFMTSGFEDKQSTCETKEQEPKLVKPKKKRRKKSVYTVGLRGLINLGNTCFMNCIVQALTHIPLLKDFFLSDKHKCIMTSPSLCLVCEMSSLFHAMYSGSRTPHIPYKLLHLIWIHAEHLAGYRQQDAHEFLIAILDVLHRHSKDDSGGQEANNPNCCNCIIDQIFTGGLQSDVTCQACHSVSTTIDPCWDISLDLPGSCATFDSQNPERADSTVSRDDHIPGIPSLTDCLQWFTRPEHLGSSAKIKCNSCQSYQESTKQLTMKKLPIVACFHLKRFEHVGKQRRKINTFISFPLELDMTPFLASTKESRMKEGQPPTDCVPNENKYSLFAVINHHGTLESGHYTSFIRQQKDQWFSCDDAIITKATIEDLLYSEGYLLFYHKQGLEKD
GAP50: Glideosome-associated protein 50 (GAP50, Plasmodium falciparum, UniProt Q8I2X3)
UniProt Q8I2X3, sequence (whole entry, looked up): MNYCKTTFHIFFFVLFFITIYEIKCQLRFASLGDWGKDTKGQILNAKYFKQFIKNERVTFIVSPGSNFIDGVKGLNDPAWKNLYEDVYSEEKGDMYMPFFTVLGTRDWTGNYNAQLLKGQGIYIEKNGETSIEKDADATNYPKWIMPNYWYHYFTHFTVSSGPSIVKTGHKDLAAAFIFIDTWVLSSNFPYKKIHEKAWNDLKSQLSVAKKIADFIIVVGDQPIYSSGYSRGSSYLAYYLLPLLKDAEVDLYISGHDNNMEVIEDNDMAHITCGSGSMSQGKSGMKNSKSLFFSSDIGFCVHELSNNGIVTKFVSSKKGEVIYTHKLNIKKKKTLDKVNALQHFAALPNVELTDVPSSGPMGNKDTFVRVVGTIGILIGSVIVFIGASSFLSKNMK
CDK9: Cyclin-dependent kinase 9 (CDK9, Homo sapiens, UniProt P50750)
UniProt P50750, sequence (whole entry, looked up): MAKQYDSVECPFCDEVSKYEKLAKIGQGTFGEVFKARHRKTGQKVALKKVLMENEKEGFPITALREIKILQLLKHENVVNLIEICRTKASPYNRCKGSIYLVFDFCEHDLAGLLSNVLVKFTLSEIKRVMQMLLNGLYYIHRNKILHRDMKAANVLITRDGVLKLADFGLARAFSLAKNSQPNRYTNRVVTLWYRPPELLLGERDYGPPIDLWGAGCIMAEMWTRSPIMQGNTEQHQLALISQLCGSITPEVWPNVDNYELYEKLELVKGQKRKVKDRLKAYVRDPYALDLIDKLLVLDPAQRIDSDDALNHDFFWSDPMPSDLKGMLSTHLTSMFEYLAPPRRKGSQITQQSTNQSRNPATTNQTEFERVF
Kir3.1/Kir3.2: Kir3.1/Kir3.2 (Homo sapiens, UniProt P48051+P48549)
UniProt P48051, sequence (whole entry, looked up): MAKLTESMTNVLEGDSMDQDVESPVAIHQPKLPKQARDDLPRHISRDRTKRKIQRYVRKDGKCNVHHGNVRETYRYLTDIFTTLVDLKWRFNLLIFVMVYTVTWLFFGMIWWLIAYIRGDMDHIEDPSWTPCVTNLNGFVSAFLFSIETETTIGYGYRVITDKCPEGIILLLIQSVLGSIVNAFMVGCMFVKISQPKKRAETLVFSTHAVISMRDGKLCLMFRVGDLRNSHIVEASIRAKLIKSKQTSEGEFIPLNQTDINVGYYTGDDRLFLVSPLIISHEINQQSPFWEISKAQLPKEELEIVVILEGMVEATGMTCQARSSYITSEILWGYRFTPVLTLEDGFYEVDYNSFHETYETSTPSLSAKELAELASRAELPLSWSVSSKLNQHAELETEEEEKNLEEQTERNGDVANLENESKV
UniProt P48549, sequence (whole entry, looked up): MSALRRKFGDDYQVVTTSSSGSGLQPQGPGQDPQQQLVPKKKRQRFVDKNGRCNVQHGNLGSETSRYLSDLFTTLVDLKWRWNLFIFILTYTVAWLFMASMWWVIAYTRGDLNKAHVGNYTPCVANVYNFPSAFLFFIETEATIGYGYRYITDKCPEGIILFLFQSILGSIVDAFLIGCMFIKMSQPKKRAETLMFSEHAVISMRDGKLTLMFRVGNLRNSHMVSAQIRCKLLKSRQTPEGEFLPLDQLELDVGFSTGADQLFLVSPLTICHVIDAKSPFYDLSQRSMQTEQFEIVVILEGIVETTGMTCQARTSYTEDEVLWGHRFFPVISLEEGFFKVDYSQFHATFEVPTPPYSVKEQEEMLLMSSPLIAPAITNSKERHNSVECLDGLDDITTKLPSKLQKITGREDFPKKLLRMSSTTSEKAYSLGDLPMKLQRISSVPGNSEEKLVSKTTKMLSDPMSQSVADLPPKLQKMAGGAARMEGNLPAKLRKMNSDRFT
UniProt P10636, sequence (whole entry, looked up): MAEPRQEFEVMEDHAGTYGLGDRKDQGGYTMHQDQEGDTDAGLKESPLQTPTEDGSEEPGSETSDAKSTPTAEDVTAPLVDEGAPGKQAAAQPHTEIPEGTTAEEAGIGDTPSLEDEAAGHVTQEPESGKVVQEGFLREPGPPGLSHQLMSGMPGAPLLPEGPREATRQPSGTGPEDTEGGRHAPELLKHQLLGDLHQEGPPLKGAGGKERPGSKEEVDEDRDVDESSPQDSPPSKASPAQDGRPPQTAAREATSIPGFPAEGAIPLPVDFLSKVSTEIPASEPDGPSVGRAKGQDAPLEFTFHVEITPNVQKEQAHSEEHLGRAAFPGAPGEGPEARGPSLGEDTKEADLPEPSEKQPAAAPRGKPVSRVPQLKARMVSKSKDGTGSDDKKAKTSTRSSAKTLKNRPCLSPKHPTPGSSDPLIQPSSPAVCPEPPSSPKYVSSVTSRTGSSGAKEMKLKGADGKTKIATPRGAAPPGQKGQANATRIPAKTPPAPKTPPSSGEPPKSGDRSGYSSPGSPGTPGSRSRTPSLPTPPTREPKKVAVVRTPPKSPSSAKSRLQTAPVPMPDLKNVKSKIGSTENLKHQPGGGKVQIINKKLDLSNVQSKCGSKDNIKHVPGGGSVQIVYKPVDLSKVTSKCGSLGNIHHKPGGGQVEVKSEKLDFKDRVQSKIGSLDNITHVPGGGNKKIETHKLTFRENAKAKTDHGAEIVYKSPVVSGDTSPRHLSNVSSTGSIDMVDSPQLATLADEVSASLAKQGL
UniProt P05412, sequence (whole entry, looked up): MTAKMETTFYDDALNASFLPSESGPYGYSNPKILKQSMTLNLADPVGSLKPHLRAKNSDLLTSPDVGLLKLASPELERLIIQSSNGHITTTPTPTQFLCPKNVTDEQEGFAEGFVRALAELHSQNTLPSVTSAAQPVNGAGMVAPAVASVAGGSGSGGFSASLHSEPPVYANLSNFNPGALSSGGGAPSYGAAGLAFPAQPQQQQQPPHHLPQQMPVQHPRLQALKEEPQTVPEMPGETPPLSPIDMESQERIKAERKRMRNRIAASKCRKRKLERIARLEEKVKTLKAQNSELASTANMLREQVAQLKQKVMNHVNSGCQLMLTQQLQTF
UniProt P34995, sequence (whole entry, unmodified, looked up): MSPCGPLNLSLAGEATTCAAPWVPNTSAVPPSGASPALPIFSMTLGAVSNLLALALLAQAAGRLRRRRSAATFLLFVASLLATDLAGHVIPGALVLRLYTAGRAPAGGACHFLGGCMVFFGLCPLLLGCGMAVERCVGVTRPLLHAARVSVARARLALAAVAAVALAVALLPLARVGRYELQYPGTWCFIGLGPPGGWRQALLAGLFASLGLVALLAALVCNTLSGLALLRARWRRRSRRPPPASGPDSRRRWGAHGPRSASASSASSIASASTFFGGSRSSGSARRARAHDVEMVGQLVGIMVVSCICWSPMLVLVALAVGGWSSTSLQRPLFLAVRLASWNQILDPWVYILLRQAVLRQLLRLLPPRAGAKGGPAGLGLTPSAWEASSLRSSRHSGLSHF
UniProt Q969S8, sequence (whole entry, looked up): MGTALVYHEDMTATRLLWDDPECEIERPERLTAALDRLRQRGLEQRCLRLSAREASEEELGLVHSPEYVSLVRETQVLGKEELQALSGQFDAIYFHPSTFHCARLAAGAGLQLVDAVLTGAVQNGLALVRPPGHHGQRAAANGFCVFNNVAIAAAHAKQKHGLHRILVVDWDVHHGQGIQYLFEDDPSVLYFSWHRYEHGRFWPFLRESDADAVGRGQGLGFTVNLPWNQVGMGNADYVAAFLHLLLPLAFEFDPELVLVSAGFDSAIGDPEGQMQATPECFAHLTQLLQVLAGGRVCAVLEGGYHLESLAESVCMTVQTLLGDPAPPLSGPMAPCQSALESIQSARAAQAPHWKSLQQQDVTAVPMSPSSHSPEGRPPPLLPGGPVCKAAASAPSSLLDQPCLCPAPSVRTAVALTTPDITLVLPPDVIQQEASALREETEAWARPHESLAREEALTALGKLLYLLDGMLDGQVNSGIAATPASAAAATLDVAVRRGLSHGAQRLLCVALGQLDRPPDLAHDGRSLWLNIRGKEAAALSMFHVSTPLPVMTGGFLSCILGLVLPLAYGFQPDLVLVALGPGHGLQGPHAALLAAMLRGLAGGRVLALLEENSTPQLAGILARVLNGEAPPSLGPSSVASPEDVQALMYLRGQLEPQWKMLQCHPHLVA
UniProt P15407, sequence (whole entry, looked up): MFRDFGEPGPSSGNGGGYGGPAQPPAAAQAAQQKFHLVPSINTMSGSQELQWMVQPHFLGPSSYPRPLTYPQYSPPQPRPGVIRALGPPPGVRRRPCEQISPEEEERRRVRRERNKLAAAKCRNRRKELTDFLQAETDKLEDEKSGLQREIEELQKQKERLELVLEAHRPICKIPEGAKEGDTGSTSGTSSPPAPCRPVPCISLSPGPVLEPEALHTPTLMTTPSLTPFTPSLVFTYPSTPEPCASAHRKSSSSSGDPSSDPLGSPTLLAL

CCCCCC/C=C\CCCCCCCCCCCCCCC  IC50 (uncharacterized protein (Drosophila suzukii, UniProt A0AB39ZGK5); binding, bis-ANS competition fluorescence; pH 7.4, added: bis-ANS): 33.8 µM
CN1CCN(c2ccc(Nc3ncc4cc(C#N)c(=O)n(C5CCCC5)c4n3)cc2)CC1  IC50 (MAP3K11 (Homo sapiens, UniProt Q16584)): 0.133 µM
O=C(O)CCC(=O)Nc1ccccc1  Kd (USP51 ZnF-UBD domain): > 1000 µM
CC[C@@H]1[C@H](F)C(=O)N[C@@H]1COc1nccc2cc(C(N)=O)c(OC)cc12  IC50 (MAP3K21 (Homo sapiens, UniProt Q5TCX8); ATP probe binding, KiNativ profiling, measured: MLK4 Lys2 probe site; THP-1 cell lysate): > 5 µM
CC(=O)C(C)O (stereo not shown)  IC50 (uncharacterized protein (Drosophila suzukii, UniProt A0AB39ZCT4); binding, bis-ANS competition fluorescence; pH 7.4, added: bis-ANS): > 50 µM
O=C(O)CNc1ncccn1  Kd (USP51 ZnF-UBD domain): > 1000 µM
O=C(Nc1ccc(-c2ccccc2)cc1)C1=C(O)C(Cc2ccccc2)OC1=O (stereo not shown)  Kd (GAP50; binding, surface plasmon resonance; 1:1 binding model): 38.5 µM
CC(C)(C)c1cnc(CSc2cnc(NC(=O)C3CCN(C(=O)CCCCCCN4Cc5cc6c(cc5C4)C(=O)N(C4CCC(=O)NC4=O)C6=O)CC3)s2)o1 (stereo not shown)  DC50 (CDK9; degrader, Western blot; RH5 rhabdomyosarcoma; 6 h): < 0.01 µM
O=C(O)CCc1cnn(-c2ccccc2)c1  Kd (USP51 ZnF-UBD domain): > 1000 µM
O=C(COP(=O)(O)O)[C@@H](O)[C@H](O)[C@H](O)COP(=O)(O)O  AC50 (Pyruvate kinase PKM (PKM, Homo sapiens, UniProt P14618); enzyme activity, activator; RKO cell lysate; added: 0.2 mM PEP, 2 mM ADP): 0.0575 ± 0.0227 µM
N#Cc1c2n(c3c(=O)n(CC(=O)O)cnc13)CCCC2  Kd (USP51 ZnF-UBD domain): > 1000 µM
CC(C)(C)c1cnc(CSc2cnc(NC(=O)C3CCN(C(=O)COCCOCCN4Cc5cc6c(cc5C4)C(=O)N(C4CCC(=O)NC4=O)C6=O)CC3)s2)o1 (stereo not shown)  DC50 (CDK9; degrader, Western blot; TC-71): 0.0161 ± 0.0049 µM
O=C(COc1cc(Cl)ccc1Cl)Nc1cc(C2CC2)nn1CC(F)(F)F  EC50 (Kir3.1/Kir3.2; activator, thallium flux; HEK293): 1.21 µM
CC(C)(C)c1cnc(CSc2cnc(NC(=O)C3CCN(C(=O)CCOCCN4Cc5cc6c(cc5C4)C(=O)N(C4CCC(=O)NC4=O)C6=O)CC3)s2)o1 (stereo not shown)  DC50 (CDK9; degrader, Western blot; TC-71): 0.0103 ± 0.0052 µM
O=C(Nc1ccccc1-c1nc2c(C(=O)O)cccc2o1)c1ccccc1  Kd (GAP50; binding, surface plasmon resonance; 1:1 binding model): 7.75 µM
N#Cc1ccsc1NC(=O)COc1ccc(Cl)cc1Cl  EC50 (Kir3.1/Kir3.2; activator, thallium flux; HEK293): > 10 µM
O=C(O)CCc1cn2cccnc2n1  Kd (USP51 ZnF-UBD domain): > 1000 µM
NC(=O)c1ccc[n+]([C@@H]2O[C@H](COP(=O)(O)OP(=O)(O)OC[C@H]3O[C@@H](n4cnc5c(N)ncnc54)[C@H](OP(=O)(O)O)[C@@H]3O)[C@@H](O)[C@H]2O)c1  Ki (NADPH--cytochrome P450 reductase (Rattus norvegicus, UniProt P00388, del2-56); cytochrome c reduction, competitive inhibitor; S678X mutant, added: NADPH): 14.2 µM
Cc1c[nH]c(CCNC(=O)c2cc(-c3ccc(Cl)cc3)cs2)n1  Kd (GAP50; binding, surface plasmon resonance; 1:1 binding model): 58.4 µM
COc1ccc2nc(/C=C/c3ccc(N(C)C)cc3)sc2c1  AC50 (Microtubule-associated protein tau, fibrils (MAPT, Homo sapiens, UniProt P10636); binding; synthetic 2N4R tau filaments 1 µM; added: thioflavin S): > 10 µM
O=C(COc1cccc(Cl)c1Cl)Nc1cc(C2CC2)nn1C1CCC(F)(F)CC1  EC50 (Kir3.1/Kir3.2; activator, thallium flux; HEK293): 0.294 µM
CCCCCCCCCCCCCCCC  Ki (uncharacterized protein (Bradysia odoriphaga, UniProt A0A2S0X9G4); binding, competitive fluorescence displacement): > 50 µM
CCOC(C)=O  IC50 (uncharacterized protein (Drosophila suzukii, UniProt A0AB39ZGK5); binding, bis-ANS competition fluorescence; pH 7.4, added: bis-ANS): > 50 µM
CCCCC[C@H](O)/C=C/[C@H]1[C@H](O)CC(=O)[C@@H]1C/C=C\CCCC(=O)O  EC50 (PTGER1 (Homo sapiens, UniProt P34995, I352A); IP1 accumulation, agonist; AD293; EP1 I352A mutant): 0.00407 µM
O=C(O)CCc1nccs1  Kd (USP51 ZnF-UBD domain): > 1000 µM
O=C(c1ccccc1)N1CCN(c2ccccc2NC(=O)C(Cl)(Cl)Cl)CC1  Kd (GAP50; binding, surface plasmon resonance; 1:1 binding model): 19.4 µM
O=C(O)CN1Cc2ccccc2C1=O  Kd (USP51 ZnF-UBD domain): > 1000 µM
CC(C)CCN1C(=O)C(C2=NS(=O)(=O)c3cc(NS(C)(=O)=O)ccc3N2)=C(O)[C@@H]2[C@H]3CC[C@H](C3)[C@@H]21  Kd (GAP50; binding, surface plasmon resonance; 1:1 binding model): 17.6 µM
COc1ccc(/C=C/c2ccc(/C=C/c3ccc(OC)c(C(=O)O)c3)c(I)c2)cc1C(=O)O  AC50 (Microtubule-associated protein tau, paired helical filaments (MAPT, Homo sapiens, UniProt P10636); binding; authentic PHF 1 µM; added: thioflavin S): > 10 µM
CC(=O)Nc1ccc(-c2noc(C[C@H]3CCCN(Cc4cccc(F)c4C)C3)n2)cc1  Kd (GAP50; binding, surface plasmon resonance; 1:1 binding model): 50.9 µM
O=C(O)CCc1cnccn1  Kd (USP51 ZnF-UBD domain): > 1000 µM
O=C(COc1cc(Cl)ccc1Cl)Nc1cc(C2CC2)nn1C1CCC(F)(F)CC1  EC50 (Kir3.1/Kir3.2; activator, thallium flux; HEK293): 0.194 µM
C=C1CCC2CC1C2(C)C (stereo not shown)  Ki (uncharacterized protein (Bradysia odoriphaga, UniProt A0A2S0X9G4); binding, competitive fluorescence displacement): > 50 µM
O=C(COc1ccc(C(F)(F)F)cc1C(F)(F)F)Nc1cc(C2CCC2)nn1C1CCC(F)(F)CC1  EC50 (Kir3.1/Kir3.2; activator, thallium flux; HEK293): 1.3 µM
C=CC(C)=CCC=C(C)C  Ki (uncharacterized protein (Bradysia odoriphaga, UniProt A0A2S0X9G4); binding, competitive fluorescence displacement): > 50 µM
O=C(C=Cc1cc(C(=O)c2ccc(OC3CCCC3)cc2O)ccc1OCc1ccc2c(O)noc2c1)NCCOCCOCCOCCOCCOCCOCCOCCNc1cccc2c1C(=O)N(C1CCC(=O)NC1=O)C2=O (stereo not shown)  DC50 (JUN/FOSL1 (Homo sapiens, UniProt P05412+P15407); degrader, western blot; UMSCC1 cells): 2.3 µM
O=C(COc1cccc(Cl)c1Cl)Nc1cc(C2CCC2)nn1C1CCOCC1  EC50 (Kir3.1/Kir3.2; activator): 1.2 µM
CC(C)(C)c1cnc(CSc2cnc(NC(=O)C3CCN(C(=O)CCCCN4Cc5cc6c(cc5C4)C(=O)N(C4CCC(=O)NC4=O)C6=O)CC3)s2)o1 (stereo not shown)  DC50 (CDK9; degrader, Western blot; TC-71): 0.0112 ± 0.0049 µM
Cn1cncc1[C@@](N)(c1ccc(Cl)cc1)c1ccc2c(c1)c(-c1cccc(Cl)c1)cc(=O)n2C  Kd (GAP50; binding, surface plasmon resonance; 1:1 binding model): 55.2 µM
O=C(COc1ccc(C2CCC(=O)NC2=O)cc1)NCCCCCCN1CCc2c(c3ccccc3n2Cc2ccc(C(=O)NO)cc2)C1 (stereo not shown)  DC50 (HDAC10 (Homo sapiens, UniProt Q969S8); degrader, western blot; MM1.S cells; 24 h): 0.0017 ± 0.0009 µM
O=C(COc1cc(Cl)ccc1Cl)Nc1cc(C2CCC2)nn1CC(F)(F)F  EC50 (Kir3.1/Kir3.2; activator, thallium flux; HEK293): > 10 µM
COc1ccc(Oc2ccc([C@@H](C)N(C)c3ncc4c(N)nc(N)nc4n3)cc2)cc1  Kd (GAP50; binding, surface plasmon resonance; 1:1 binding model): 577 µM
CC(C)(C)c1cnc(CSc2cnc(NC(=O)C3CCN(C(=O)CCCCCCCN4Cc5cc6c(cc5C4)C(=O)N(C4CCC(=O)NC4=O)C6=O)CC3)s2)o1 (stereo not shown)  DC50 (CDK9; degrader, Western blot; SK-UT-1 uterine leiomyosarcoma; 6 h): < 0.01 µM
